# Measurements gathered from unrelated publications.
# Numbered parts are unrelated; each lists some results of a single study. Changes are numbered by the printed parent chain.

# Set 1
# Target: CREB3, bZIP domain (human)
# Method: DHFR protein complementation
# Matrix: yeast
# Notes: single substitutions, most at no-binding floor
# Relative to: wild-type JUN-FOS pair
# Reading: higher = stronger binding
# Parent: JUN, bZIP domain (human); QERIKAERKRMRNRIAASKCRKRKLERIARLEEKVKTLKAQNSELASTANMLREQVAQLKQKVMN; partner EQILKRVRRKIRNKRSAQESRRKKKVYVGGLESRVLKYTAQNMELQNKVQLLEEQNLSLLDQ
Variant,binding fitness [natural log]
S43Y,-1.52
A46M,-1.02
E32Q,-1.38
E33P,-1.56
K34C,-1.49
S43K,-1.41
A40S,-1.45
A49C,-1.46
E44R,-1.41
L45S,-1.49
A46R,-1.44
E54W,-1.46
K36Q,-1.5
L45N,-1.51
N42T,-1.54
Q58R,-1.26
L45P,-1.5
K39Y,-1.48
A40F,-1.49
T37D,-1.45
V35H,-1.43
M51K,-1.5
K39P,-1.54
L31R,-1.47
Q55S,-1.5

# Set 2
# Target: Protein C-ets-1 (ETS1, Homo sapiens, UniProt P14921, residues 1-441, K379A, full length assumed)
# Method: protein-binding microarray
# Form: double-stranded DNA, one strand shown
# Matrix: in vitro
# Concentration: not given
# Notes: k-mer, scored over probes, only values ≥0.25
# Reading: higher = stronger binding
# Target sequence (chain): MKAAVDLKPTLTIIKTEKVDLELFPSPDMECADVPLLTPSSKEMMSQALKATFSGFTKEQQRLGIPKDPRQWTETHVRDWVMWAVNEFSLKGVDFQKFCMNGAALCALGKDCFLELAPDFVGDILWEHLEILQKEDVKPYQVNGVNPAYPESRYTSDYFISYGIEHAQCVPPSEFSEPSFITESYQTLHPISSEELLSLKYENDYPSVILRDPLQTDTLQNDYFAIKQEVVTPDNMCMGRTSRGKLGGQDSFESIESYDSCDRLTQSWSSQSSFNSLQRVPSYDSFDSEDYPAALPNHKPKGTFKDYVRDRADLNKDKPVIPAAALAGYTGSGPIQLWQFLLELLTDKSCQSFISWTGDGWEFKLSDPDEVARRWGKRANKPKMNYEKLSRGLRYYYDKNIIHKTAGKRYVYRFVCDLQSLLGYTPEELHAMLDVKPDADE
Oligonucleotide,E-score
GCCACACA,0.254
GTCCGGAA,0.267
ACAGATCC,0.273
ACCGACAG,0.383
GTATATAA,0.258
ACCAACAC,0.302
GTTGTCTA,0.252
TAATATGA,0.274
CCGGTACG,0.367
CCGGTCCA,0.301
CTACAGTA,0.286
CGGGGTTC,0.295
ACCGGCGC,0.369
GCCGCCCC,0.31
GACGTCTA,0.276
CCAATAAC,0.252
CCGGGAAG,0.352
TGCAATAA,0.327
GCGGTATA,0.268
CCGGTTAC,0.385
AAACTACA,0.301
AGTTCCGG,0.382
TCCGGTAA,0.451

# Set 3
# Target: CCNB1, cyclin fold, Cln2 fusion (human)
# Method: yeast growth competition, sequencing
# Matrix: yeast
# Notes: strong parent motif
# Relative to: not given
# Reading: higher = stronger binding
# Parent: PKN2 docking peptide (human); VSAVRKLDFSDTM
Variant,normalised enrichment score
VSANRKLDFSDTM [V4N],1.44
VLAVRKLDFSDTM [S2L],3.19
VSAVRKLRFSDTM [D8R],1.15
VSAVRKLNFSDTM [D8N],3.03
VSAVRKLDFSETM [D11E],3.98
VSAVRKLDESDTM [F9E],-0.0585
VSAVRKLDFSDHM [T12H],3.78
VSAVYKLDFSDTM [R5Y],0.543
VSALRKLDFSDTM [V4L],0.44
VSAVRKLDFSPTM [D11P],3.41
VSAFRKLDFSDTM [V4F],1.09
VSAVNKLDFSDTM [R5N],0.208
VSAVRKSDFSDTM [L7S],0.356
VSAVRKLDFSRTM [D11R],1.7
VSAVRKLSFSDTM [D8S],4.38
VSAVRKEDFSDTM [L7E],-0.345
VSAWRKLDFSDTM [V4W],0.535
VSAVRKLDFSDPM [T12P],3.94
VRAVRKLDFSDTM [S2R],2.75
VSAVRKLDFSDSM [T12S],4.01
VSAVRKLDFSDDM [T12D],4.45
VSAVRKLDFSDNM [T12N],4.3
VSAVPKLDFSDTM [R5P],0.185
VSAVRKMDFSDTM [L7M],0.0865
VSAVRKLDFSDRM [T12R],3.15

# Set 4
# Target: PABPC1L2, full length, GST fusion (mouse, UniProt A0ABA7IW68)
# Method: RNAcompete
# Form: RNA
# Matrix: in vitro
# Concentration: 20 nM
# Notes: 7-mer, probes averaged, single round
# Relative to: mean of 7-mers
# Reading: higher = stronger binding
# Residues (chain): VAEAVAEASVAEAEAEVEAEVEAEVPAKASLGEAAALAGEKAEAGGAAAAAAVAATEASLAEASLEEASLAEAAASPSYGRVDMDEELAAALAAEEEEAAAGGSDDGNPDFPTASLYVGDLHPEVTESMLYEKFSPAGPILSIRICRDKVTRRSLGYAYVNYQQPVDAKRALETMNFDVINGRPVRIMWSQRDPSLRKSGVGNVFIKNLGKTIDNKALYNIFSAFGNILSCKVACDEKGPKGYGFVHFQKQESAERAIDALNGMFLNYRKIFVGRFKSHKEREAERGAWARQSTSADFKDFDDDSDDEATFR
Oligonucleotide,7-mer Z-score
AGUUACG,-0.139
GAGGGUG,0.16
ACACCAA,0.169
GUGUAUC,-0.302
UGAACGU,-0.188
UGCUGAA,0.215
AAGUGCU,0.0388
AUCUUUC,-0.315
CUGAACC,-0.271
CGAUAUA,-0.0917
ACCGUAC,-0.275
AUUCUUA,-0.188
GGCCUUU,-0.327
GUCGGUU,-0.26
AUUUGUA,-0.0663
GCUAAAU,0.341

# Set 5
# Target: Histone acetyltransferase KAT6A, winged helix 1, GST fusion (KAT6A, Homo sapiens, UniProt Q92794, residues 1-85)
# Method: protein binding microarray
# Form: double-stranded DNA, one strand shown
# Matrix: in vitro
# Concentration: not given
# Notes: 8-mer, flanks averaged, mean of 2 arrays, mostly near background
# Relative to: not given
# Reading: higher = stronger binding
# Target sequence (chain): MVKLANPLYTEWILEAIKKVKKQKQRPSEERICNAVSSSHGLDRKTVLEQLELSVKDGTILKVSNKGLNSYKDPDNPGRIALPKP
Oligonucleotide,E-score
CCTACTTC,-0.202
AACCATCG,-0.0248
AAAACGTA,-0.149
GGCCCAAA,-0.15
CAGAGATC,-0.257
AGTTTCAG,0.0604
CCCAACTC,-0.272
CAGACCCA,-0.145
TAGTGCAA,-0.0181
AGCGAGCA,-0.0389
AGCAGTTC,-0.228
CGAACACC,0.023
CCAAGCAA,-0.223
TCAATAAA,-0.159
ACTCATGA,0.0006
ACTGATTC,-0.0952

# Set 6
# Target: Interferon regulatory factor 7, full length, phosphomimetic (IRF7, Homo sapiens, UniProt Q92985, residues 1-503, S471D/S472D/S475D/S476D/S477D/S483D/S484D/S487D)
# Method: protein-binding microarray
# Form: double-stranded DNA, one strand shown
# Matrix: in vitro
# Concentration: 2200 nM top
# Notes: 60-bp whole probe
# Together with: salmon DNA 0.4 mg/ml
# Relative to: random background probes
# Reading: higher = stronger binding
# Shared flanks, not repeated: GCCTAGCAC … GTCTTGATTCGCTTGACGCTGCTG
# Target sequence (chain): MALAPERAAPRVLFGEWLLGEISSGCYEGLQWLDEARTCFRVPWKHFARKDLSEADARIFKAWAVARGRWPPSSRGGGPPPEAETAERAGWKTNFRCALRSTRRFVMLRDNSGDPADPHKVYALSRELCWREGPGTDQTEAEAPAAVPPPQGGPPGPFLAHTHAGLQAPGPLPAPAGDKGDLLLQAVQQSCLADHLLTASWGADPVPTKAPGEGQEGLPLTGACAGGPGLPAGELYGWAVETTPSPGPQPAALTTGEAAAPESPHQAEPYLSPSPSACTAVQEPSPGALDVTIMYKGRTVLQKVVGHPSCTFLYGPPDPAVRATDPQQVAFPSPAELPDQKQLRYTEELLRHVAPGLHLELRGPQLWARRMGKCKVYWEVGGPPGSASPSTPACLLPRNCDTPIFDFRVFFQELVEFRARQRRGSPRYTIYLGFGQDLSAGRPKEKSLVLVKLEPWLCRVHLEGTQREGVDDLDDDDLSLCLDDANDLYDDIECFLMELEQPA
Oligonucleotide,fitted relative affinity
TTAGGTTCCGGTTTCGGTTCGTGCTAG,14.8 z-score
GACGCTATCGGGTTTCGAGACGTGCTA,1.64 z-score
TCCCCTTCTACTCTCCTGCAGTGCTAG,2.11 z-score
TTAGGTACCCTTTTCCTTTAGTGCTAG,2.12 z-score
TTAGGACTGGGATTGGGTTAGTGCTAG,-0.464 z-score
GTGTTTCTCAAATGTTTTGTTGTGCTA,1.64 z-score
TTTGGTCTCCTACTGCTTTAGTGCTAG,1.54 z-score
GACGCTTTCCTTCTCCTGACGTGCTAG,3.53 z-score
TTAGGTTTCGGGACCGGGTTAGTGCTA,2.98 z-score
GTCACTCTCTGGGCTGTGGGTGTGCTA,0.203 z-score
TTAGGTCTCATTATCCTTTAGTGCTAG,0.777 z-score
GAAGATCTCAGTATCGAGACGTGCTAG,-0.267 z-score
TTAGGTCTCCTGCTGCTTTAGTGCTAG,0.397 z-score
GACGGACTGCTTTTCCTGTCGTGCTAG,1.4 z-score
ATTGTCTTCCCCATCTTGTTGTGCTAG,2.38 z-score
GACGTTTTCCTTCTCCTGACGTGCTAG,3.7 z-score
TCATTTTTCTGATCCATACTGTGCTAG,3.13 z-score
TCAAGTCTCAACCCCCAAACTGTGCTA,0.0435 z-score
TTAGATATCGGGTAACGATTAGTGCTA,-0.553 z-score

# For quick reference, copied from above (set 1):
Variant,binding fitness [natural log]
K39P,-1.54
Q55S,-1.5
E54W,-1.46
E32Q,-1.38
A46M,-1.02
A49C,-1.46
E33P,-1.56
S43Y,-1.52
K36Q,-1.5
L45P,-1.5
A40F,-1.49
M51K,-1.5
L45N,-1.51
N42T,-1.54
E44R,-1.41
